Experimental data of several laboratories.
Parts stem from different laboratories: compare values within a part only.

Block 1
Target: Prothrombin, mature alpha-thrombin (F2, Homo sapiens, UniProt P00734)
Method: aptamer microarray, sandwich
Form: DNA with 2'F-ANA
Medium: in vitro
Tested at: 200 nM
Notes: whole 15-mer aptamer, many near background
Added: Cy3 exosite-II aptamer, 400 nM
Direction: higher = stronger binding
Strand: GGTTGGTGTGGTTGG
Modification	mean fluorescence intensity [a.u.]
2'F-ANA at 3 4 5 6 9 15	90.9
2'F-ANA at 2 4 6 7 8 12 13 14	118
2'F-ANA at 1 2 3 4 6 7 8 10 12 13	66.7
2'F-ANA at 1 4 8 11 12 13 14 15	61.8
2'F-ANA at 1 2 3 4 6 8 9 13 15	106
2'F-ANA at 3 10 12 13	616
2'F-ANA at 4 6 7 9 10 14 15	64.1
2'F-ANA at 1 2 3 5 6 8 9 11 14	57.7
2'F-ANA at 3 4 8 10 11 13 14	305
2'F-ANA at 1 2 3 4 5 8 9 14 15	45.6
2'F-ANA at 1 3 4 5 6 7 9 11 13 14 15	51.2
2'F-ANA at 1 4 5 7 12 13 14 15	43.1
2'F-ANA at 1 2 4 7 11 13	79.4
2'F-ANA at 2 3 4 5 7 8 9 11 13 15	64.9
2'F-ANA at 3 4 5 9 10 11 12 15	57.9
2'F-ANA at 2 4 5 7 8 9 12 14 15	46
2'F-ANA at 2 8 9 10 12 14	89.7
2'F-ANA at 2 3 5 6 8 9 10 11 15	139
2'F-ANA at 2 3 4 5 7 9 10 11 13	51.7
2'F-ANA at 1 2 3 4 10	80.2
2'F-ANA at 1 5 6 7 11 12	86.4
2'F-ANA at 2 3 4 6 10 12 14	165
2'F-ANA at 3 5 7 9 11 13 15	126
2'F-ANA at 4 6 8 9 10 11 14 15	56.1
2'F-ANA at 3 6 7 8 10 11 13	496

Block 2
Target: RING finger protein unkempt homolog, zinc fingers 1-6, SBP tag (UNK, Homo sapiens, UniProt Q9C0B0, residues 30-357)
Sequence of UniProt Q9C0B0 (30-357, looked up): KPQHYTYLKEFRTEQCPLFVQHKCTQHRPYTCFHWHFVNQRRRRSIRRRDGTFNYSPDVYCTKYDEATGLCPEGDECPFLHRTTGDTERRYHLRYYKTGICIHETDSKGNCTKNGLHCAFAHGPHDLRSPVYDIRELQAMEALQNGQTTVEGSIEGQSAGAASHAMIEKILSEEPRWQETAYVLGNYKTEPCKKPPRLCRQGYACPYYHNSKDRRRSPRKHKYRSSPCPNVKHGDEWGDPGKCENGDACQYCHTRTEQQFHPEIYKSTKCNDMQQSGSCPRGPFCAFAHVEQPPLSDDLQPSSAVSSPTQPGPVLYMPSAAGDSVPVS
Method: RNA Bind-n-Seq
Form: RNA
Medium: in vitro
Tested at: 100 nM
Notes: RNA with constant flanks, vertebrate orthologous sites, ends assumed
Relative to: input RNA pool
Direction: higher = stronger binding
All sequences stand within: GGGAGUUCUACAGUCCGACGAUC … CAACAGAGGAUUGAGCAUCA
Strand	bound/input enrichment [ratio]
GUUGUGAUCCAUUUAACAUACACAAAAAGCUAGCCAAAAAAAAUUUGCAUGUAAUUGACUUAGAUGAUGCCACUUUUCUGAGUGCAAAAUUUGGAAGACAGCUUGUACCUGGUUGGAAAC	0.838
AUUUAGAAGCUUAAUAAAUUGCUCCAAGAUUUCUAAAGUUGGUUUUGUAAGAUCAGACCAUAGGUUGGUGUUCUCUUAAGCUUGUGUACUCUGUCCAACGUCACAUUUUUAAAAGCGUUC	0.336
CCGAAGGGCCAGAUCCCCUCCCCCCUGCUCCUGCUUCUACCAGCUGGAAGCACAGAAAACUAGAAGUUCACUUAUUUUGUUUUUAAACGAUAUACGUUGAUUUCUUGUAACAUCCAAUAG	0.368
AGCAGUAUAGGUUAUAUUUGAACUGUGGGGAAGAGAGCUUUGCAUUUUUUAUAUUUAAAUAGGAUACUUUUUAUAUGAUGGGUGCUUUGAGUGUGAAUGCAGCAGGCUCUCCAUUUCAGA	1.78
CUGCCUUUACCCUGCUGUAUAAUAAACAACCAGACACUUGGCAACUGUUGAUACAGAUGGUAGUCCCGAAUCACUUUUUAUAUGUUUUAACAUUUGAAAUUCAAGUGUACCUGCCAUAAC	0.462
AUCCCUCAGUGACAGUAUGCCAUCUGUAGCAGAUUCCCACUCUAGUCAUUUUUCUGAAUUUAGUUGUUCUGAUCUAGAAAGCAUGAAAACUUCUUGCAGCCAUGGUUCCAGUGAUUAUCA	1.98
UUUUAUUGAUCAGGUCUGUAAAUGUAUGCUAAGAAAAUCAGAGUUUAUUUAUGAACAGAAUAGUAUAUUUAAAAAAAAAGUUUUUCUUCAUUAAUGUAGUGGUAUGCAUUCAGUAAACUC	0.522
UACAAUCUCUACUCAAGCAGGUAUUUACGUACCACAAUAAGCCUUCAUUUGACAUAUUUACAGCUUUUCUAUUUUCCAGAUGAGAGAAAAGAAUUCCAUGCUUAGAGUUAAAUGUGGUCU	0.542
UUUUAUUGAUCAGGUCUGUAAAUGUGUACUAAAAAAAUCAGAGUUUAUUUAUAAACAGAAUAGUUUAUUUAAAAAGAAGGUCUUACUUCAUCGAUAUUGUGGUAUGCAUUAAUUCCAUUU	0.207
AGUUUGUAUGUACAUUAUUCACAUUCCUCUCUGUUGUGUUUGGGGGAGAAAAAGACAUUUUAGCCUUUUUUAAGGUUAUUGAUUUAAUUUCAUGUUAUUUGGUUGCAUGAAGUUGCCCUU	0.478
GCACUACCUAUACCAAUUUUACAACAUUGAAUGCAAACUAGUGAAUUUCAUAGUCACAGAGGAAGAUAGCUUUAGGGAACUGUCUCCAUGGGUUUUACUUGUGUAGGUUUUGAAAAUGUA	1.06

Block 3
Target: Interferon regulatory factor 7, full length, phosphomimetic (IRF7, Homo sapiens, UniProt Q92985, residues 1-503, S471D/S472D/S475D/S476D/S477D/S483D/S484D/S487D)
Method: protein-binding microarray
Form: double-stranded DNA, one strand shown
Medium: in vitro
Tested at: 2200 nM top
Notes: 60-bp whole probe
Added: salmon DNA 0.4 mg/ml
Relative to: random background probes
Direction: higher = stronger binding
All sequences stand within: GCCTAGCAC … GTCTTGATTCGCTTGACGCTGCTG
Target sequence (chain): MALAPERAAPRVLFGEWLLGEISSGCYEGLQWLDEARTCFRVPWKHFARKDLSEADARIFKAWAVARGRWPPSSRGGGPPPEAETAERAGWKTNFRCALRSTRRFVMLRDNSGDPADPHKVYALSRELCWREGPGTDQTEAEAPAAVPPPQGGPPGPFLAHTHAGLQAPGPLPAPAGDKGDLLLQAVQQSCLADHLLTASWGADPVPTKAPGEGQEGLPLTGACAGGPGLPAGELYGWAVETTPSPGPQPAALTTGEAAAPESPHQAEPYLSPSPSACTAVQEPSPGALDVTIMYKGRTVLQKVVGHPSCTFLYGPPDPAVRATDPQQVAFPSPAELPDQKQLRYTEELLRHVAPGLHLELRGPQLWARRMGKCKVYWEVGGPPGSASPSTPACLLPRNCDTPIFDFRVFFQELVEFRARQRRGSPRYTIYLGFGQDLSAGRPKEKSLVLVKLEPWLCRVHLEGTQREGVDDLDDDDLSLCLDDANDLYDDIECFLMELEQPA
Strand	fitted relative affinity [z-score]
TCATGGGTCTTGTCTGGAACTGTGCTA	0.00528
GACGGACTGGGGACTAGGGACGTGCTA	-1.03
GACGGACTCGACTATCGGGACGTGCTA	-0.433
TCACGGCTCGTTATCCTACTGTGCTAG	1.11
GACGGTATTGGTATCGGGACGTGCTAG	0.0587
GACGATATCAGTATCAAGACGTGCTAG	0.168
CTAGGTTTCGACACTGGGTTAGTGCTA	2.23
TGTGGGCGTAGGCCCGGAGCGTGCTAG	-0.895
GACGGTCTCGGTCTGGGGACGTGCTAG	-0.197
ATTCTTTGCTCATTTTTCAGGGTGCTA	1.29
GACGGTCTCCTACTTCTGACGTGCTAG	1.15
GACGCTATCCTTATCCTGACGTGCTAG	1.65
GACGATATCGGGACTGGGGACGTGCTA	-0.409
TTAGGTTTGGACACTGGGTTAGTGCTA	0.11
TTAGGTCTGGACTTTCGGTTAGTGCTA	4.87
GATGGTTTCCTTCTCCTGACGTGCTAG	2.79
TCAGGTTTGTACACCGCACTGTGCTAG	1.11
GACGATCTCAGTATCGAGTCGTGCTAG	0.593

Block 4
Target: Phosphate system positive regulatory protein PHO4, full length, GST-tagged (PHO4, Saccharomyces cerevisiae, UniProt P07270, residues 1-312)
Method: competition protein-binding microarray
Form: double-stranded DNA, one strand shown
Medium: in vitro
Tested at: 2 µM
Notes: whole 60-bp probe, lowest competitor level
Added: Cbf1 competitor, 0.05 µM
Direction: higher = stronger binding
All sequences stand within: … GTCTTGATTCGCTTGACGCTGCTG
Construct (chain): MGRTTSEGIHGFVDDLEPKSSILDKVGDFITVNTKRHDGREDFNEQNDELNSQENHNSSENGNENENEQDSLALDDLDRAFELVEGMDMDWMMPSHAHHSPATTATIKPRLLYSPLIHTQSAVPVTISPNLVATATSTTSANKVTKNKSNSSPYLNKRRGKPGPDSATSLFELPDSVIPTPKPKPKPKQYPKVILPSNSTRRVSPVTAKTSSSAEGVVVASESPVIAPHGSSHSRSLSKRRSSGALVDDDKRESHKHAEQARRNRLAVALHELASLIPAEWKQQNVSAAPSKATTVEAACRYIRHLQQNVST
Strand	fluorescence intensity [a.u.]
TGCAACAACAATGCCACTTAAAACTGGCTTAACTGT	3640
CATACCCAACCTTGACCGGTGGGTGAAGATATTTGT	4140
CTAACGAAGGTTTGATTCGTGGGTGACAAGCCAAGT	6170
GAGCAAGATACTTAGCACGTGAAGCGAGGAACAGTT	15100
TGCGCAACAACTTGAGCGGTGGGTGTATGTCTAGAA	4200
GATTCAAGCTTCTTTTGCGTGATGGAATTTAGGATT	3730
CTTTCCCGATCTTGAAAGGTGGGTGTAGCACATTTG	4260
CGGGGTTAAGTTTGGTACGTGGGTGGCTTGCAGCAG	7690
CGGGGTTAAGTTTGCAGCGTGGGTGGCTTGCAGCAG	9410
TCATTCAGCATTCTCTGCATGACAGCTCTGGCTTCA	3900
TTTGATCTGGTCTCAAACGTGTATCTGTGGGGGGTA	7730
ATGGACACTTTAAAGCACGTTTTGCTTGAAGAGACA	14600
TACTGCGCCGGGTGATGCGTGACGGGTTTTTGGAAA	7340
AAGGCAACTTCCCTACACGTTGAAGTGCCAATTTTT	9170
TAACGACTGGCACCACCCGTGATGGAGAAGAACACA	6500
CGAATGCTCTTGAGCATCGTGGCCGTCACCCGGTAT	8930
CTAACGAAGGTTTTTCACGTGAAATACAAGCCAAGT	8580
CTTCGTCTCTAACTAAACGTGCTAAAGTGTAAAACG	13800
ATAAGAAGTGTTTGGAACGTGCAAATCTTTCATAAC	13100
GTCTTGTCTCATTGGTCAGTGGGTGTCCCCACTTCA	5060
ATCAAGGCTGTTCACCACGCATCTGTTCAAATCAAC	8600
TGGGCGGAAATCGCGCAGATGTGGTGTTTGAGTGTT	4810
GGCAGGCGAAAATCCTATGTGCGTAGAGCTGATACA	3880
GAATGCAAACCCCATCACGTGAAATAGAGAACAATC	11600
CGTCCTAGTGATTCTCACGTGTTTTCCATGAGGAAG	13000

Block 5
Target: Histone acetyltransferase KAT6A, winged helix 2, GST fusion (KAT6A, Homo sapiens, UniProt Q92794, residues 85-181)
Method: protein binding microarray
Form: double-stranded DNA, one strand shown
Medium: in vitro
Tested at: not given
Notes: 8-mer, flanks averaged, mean of 2 arrays, mostly near background
Relative to: not given
Direction: higher = stronger binding
Target sequence (chain): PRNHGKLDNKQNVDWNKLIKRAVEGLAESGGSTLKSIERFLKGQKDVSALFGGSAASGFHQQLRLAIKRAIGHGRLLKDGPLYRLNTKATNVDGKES
Strand	E-score
GGCGGTGA	0.0089
ATTTAGGG	-0.0814
GCTACGGA	-0.0707
ACGGGTCT	-0.202
AGTAAGCG	0.12
AAACCTTG	0.00171
AGTTTCGA	-0.0418
ACTAACAT	-0.0899
GCCTTCCC	0.00809
TGTGAACA	-0.0503
CTCGCGAC	0.175
ACGAGGTG	-0.0176
ACCCACAG	0.122
CTAAATGC	-0.0775
ATCACAAT	-0.0509
ATACGGCA	0.15
CAGGCGCC	0.167
CCCTCGTC	0.011
CATTCCAA	0.0709
CATCCACG	0.0782
AGCAATAT	0.0341
CAATGCGC	0.012
GCCACAGC	0.0855
ACCGAACT	0.157
ACACAACA	0.0982

Repeated from above (block 1):
Modification	mean fluorescence intensity [a.u.]
2'F-ANA at 2 4 6 7 8 12 13 14	118
2'F-ANA at 1 2 3 4 6 7 8 10 12 13	66.7
2'F-ANA at 1 4 8 11 12 13 14 15	61.8
2'F-ANA at 1 2 3 4 6 8 9 13 15	106
2'F-ANA at 3 10 12 13	616
2'F-ANA at 4 6 7 9 10 14 15	64.1
2'F-ANA at 1 2 3 5 6 8 9 11 14	57.7
2'F-ANA at 3 4 8 10 11 13 14	305
2'F-ANA at 1 2 3 4 5 8 9 14 15	45.6
2'F-ANA at 1 3 4 5 6 7 9 11 13 14 15	51.2
2'F-ANA at 1 4 5 7 12 13 14 15	43.1
2'F-ANA at 1 2 4 7 11 13	79.4
2'F-ANA at 2 3 4 5 7 8 9 11 13 15	64.9
2'F-ANA at 3 4 5 9 10 11 12 15	57.9
2'F-ANA at 2 4 5 7 8 9 12 14 15	46
2'F-ANA at 2 8 9 10 12 14	89.7
